Assay results of several laboratories.
Protocols differ between the studies behind these lines. Several values in a cell are separate wells, animals, samples, runs or records. ± gives the spread as reported.
TOP2A: DNA topoisomerase 2-alpha (TOP2A, Homo sapiens, UniProt P11388)
Pteridine reductase 1: Pteridine reductase 1 (Leishmania major, UniProt Q01782)
DDB1: DNA damage-binding protein 1 (DDB1, Homo sapiens, UniProt Q16531)
Cereblon/Ikaros: Cereblon/Ikaros (Homo sapiens, UniProt Q13422+Q96SW2)
BEST2: Bestrophin-2a (BEST2, Homo sapiens, UniProt Q8NFU1)
T1: G-quadruplex RNA (Homo sapiens); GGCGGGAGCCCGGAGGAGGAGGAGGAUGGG

Compound | target | test | system | setting | scale | quantity | result
CC(C)c1ccc(CSc2nc(SCc3ccc4sccc4c3)[nH]c(=O)n2)cc1 | TOP2A | decatenation | – | 7.8 µM, replicate 2 | – | decatenated DNA | 100%
CCCC(CCC)c1nc2c(Nc3ccc(C#CCCCCCCCCN)cc3)nc3ccccc3c2[nH]1 | Adenosine receptor A1 (ADORA1, Homo sapiens, UniProt P30542) | cAMP formation inhibition, agonist | HEK293 overexpressing receptor | concentration not given, together with: Cl-ENBA | – | agonist activity | no effect
COC(=O)C1CCN(C(=O)c2cccc(NCc3cnc4nc(N)nc(N)c4n3)c2)CC1 | Pteridine reductase 1 | – | – | hDHFR weight 10 | reference: LmPTR1, LmDHFR over hDHFR, 1.0 selective, 0.0 non-selective | partition index | 0.79
O=c1nc(SCc2cc(F)cc(C(F)(F)F)c2)nc(SCc2cccc(C(F)(F)F)c2)[nH]1 | TOP2A | decatenation | – | 7.8 µM, replicate 2 | – | decatenated DNA | 92.9%
CCOc1cccc(C2CC(=O)Nc3c2c(C)nn3-c2ccc3nncn3n2)c1 (centres unmarked) | DDB1 | binding, surface plasmon resonance | – | 3.75 µM | – | SPR response | 3.79 RU
N[C@@H](Cc1ccccc1)C(=O)O | Beta-2 adrenergic receptor (ADRB2, Homo sapiens, UniProt P07550) | – | HEK293 expressing β2AR | 100 µM | – | cAMP level | 23.3 pmol/mg protein and 21 pmol/mg protein and 18.6 pmol/mg protein and 22.2 pmol/mg protein
O=c1c2nc(Br)n([C@@H]3O[C@@H]4CO[P@@](O)(=S)O[C@H]4[C@H]3O)c2nc2[nH]c(-c3ccccc3)cn12 (single isomer, unassigned) | anti-cGMP antibody | antibody binding, competitive cGMP EIA | – | concentration not given, acetylated samples | reference: EC50 cGMP over EC50 cpd, higher = stronger binding | relative binding affinity | 0.0018
O=S(=O)(O)C1CCNCC1 | Sodium- and chloride-dependent taurine transporter (SLC6A6, Homo sapiens, UniProt P31641, Y138A) | binding, microscale thermophoresis | – | 31.3 µM, room temperature, together with: 50 nM labelled protein | higher = more binding | normalised MST signal | -0.0309
O=C1CCC(N2C(=O)C=C(Nc3cccc(C(NCCc4ccc(C(F)(F)F)c(Cl)c4)c4ccccc4)c3)C2=O)C(=O)N1 (centres unmarked) | Cereblon/Ikaros | protein degradation, degrader, HiBiT luminescence | Jurkat | – | – | Dmax | 70%
Cc1c(COc2ccc(CN3CCCCC3C(=O)NCCCCCCNC(=O)CN(C)CCCC34CCC(c5ccccc53)c3ccccc34)cc2Br)cccc1-c1ccccc1 (centres unmarked) | Programmed cell death 1 ligand 1 (CD274, Homo sapiens, UniProt Q9NZQ7) | degrader, western blot | HL-60 | 1 µM | – | degradation | 18.5 ± 3.1%
O=C1C(SCCO)=C(SCCO)C(=O)c2ccccc21 | Protein-glutamine gamma-glutamyltransferase (TGM2, Homo sapiens, UniProt P21980) | enzyme activity, inhibitor | – | concentration not given, reversibility, without calcium | – | inhibition after dialysis | > 90%
O=c1nc(SCc2ccc(C(F)(F)F)cc2)nc(SCc2ccc3sccc3c2)[nH]1 | TOP2A | decatenation | – | 7.8 µM | – | mean decatenated DNA | 100%
CCCCNc1ncc2c(-c3ccc(CN4CCN(C)CC4)cc3)cn([C@H]3CC[C@H](O)CC3)c2n1 | Serine/threonine-protein kinase N1 (PKN1, Homo sapiens, UniProt Q16512) | inhibitor | – | – | – | Hill slope | -0.735
CN1CCN(c2cc(-c3ccncc3)c(-c3ccc4ccccc4c3)nn2)CC1 | Vasoactive intestinal polypeptide receptor 1 (VIPR1, Homo sapiens, UniProt P32241) | agonist, FLIPR | – | 12.5 µM | – | activation | -1.2%
c1coc(-c2n[nH]cc2-c2ccnc3ccccc23)c1 | Mitogen-activated protein kinase MKC1 (MKC1, Candida albicans, UniProt P43068) | kinase binding, MIB/MS competition | Candida albicans lysate | 1 µM | reference: DMSO, negative = stronger binding | log2 fold change | -0.34
CC[C@@H]1[C@H](F)C(=O)N[C@@H]1COc1nccc2cc(C(N)=O)c(OC)cc12 | Serine/threonine-protein kinase Chk2 (CHEK2, Homo sapiens, UniProt O96017) | ATP-site probe binding, ActivX profiling | THP-1 cell lysate | 0.04 mM, Lys1 site | – | inhibition | 8.5%
Nc1nc2c(ncn2[C@@H]2O[C@H](COP(=O)(O)O)[C@@H](O)[C@H]2O)c(=O)[nH]1 | GUK1 (Homo sapiens, UniProt Q16774) | enzyme activity, NADH-coupled | – | 62.5 µM, together with: NaCl 150 mM | – | reaction velocity | 0.0477 µM/s and 0.0684 µM/s and 0.0819 µM/s
CCN1CCC[C@H]1CNC(=O)c1c(O)c(Cl)cc(Cl)c1OC | Chemerin-like receptor 1 (CMKLR1, Homo sapiens, UniProt Q99788) | β-arrestin recruitment, TANGO luminescence | – | concentration not given | reference: basal luminescence | log2 fold change | 0.346
O=C(O)C1=CCNCC1 | BEST2 | whole-cell patch clamp | HEK293 transiently expressing channel | concentration not given, membrane potential 80 mV | – | current density | 65.7 pA/pF and 213 pA/pF and 316 pA/pF and 178 pA/pF and 171 pA/pF
O=c1nc(SCc2cc(F)cc(C(F)(F)F)c2)nc(SCc2ccc3ncsc3c2)[nH]1 | TOP2A | decatenation | – | 7.8 µM, replicate 1 | – | decatenated DNA | 100%
O=C(O)c1ccc(Nc2ncc3c(n2)-c2ccc(Cl)cc2C(c2c(F)cccc2F)=NC3)cc1 | human SRPK2(h) | kinase activity | – | 1 µM | – | remaining activity | 87%

Compound | target | test | system | setting | scale | quantity | result
O=c1nc(SCc2cc(F)cc(C(F)(F)F)c2)nc(SCc2nc3ccccc3[nH]2)[nH]1 | TOP2A | decatenation | – | 125 µM | – | mean decatenated DNA | 0%
CC[C@@H](C)[C@@H](NC(=O)[C@@H](Cc1ccc(O)cc1)NC(=O)[C@H]1CCCN1C(=O)[C@@H](CCCNC(=N)N)NC(=O)[C@H](N)Cc1c[nH]cn1)C(=O)N[C@H](C)C(=O)N[C@H](Cc1c[nH]cn1)C(=O)N[C@H](CCCNC(=N)N)C(=O)N[C@@H](C(=O)N[C@H](Cc1ccc(O)cc1)C(=O)N[C@H](CO)C(=O)N[C@H](Cc1ccccc1)C(N)=O)C(C)C | Programmed cell death 1 ligand 1 (Cd274, Mus musculus, UniProt Q9EP73) | Western blot, item: PD-L1/GAPDH | mouse MC-38 tumour model, tumour tissue | dose not given, unit not given | reference: saline | PD-L1 protein level | 0.855
CC[S+]([O-])c1nc(-c2ccccc2)cc(C(F)(F)F)n1 (centres unmarked) | Importin subunit beta-1 (KPNB1, Homo sapiens, UniProt Q14974) | thermal shift | – | 30 µM, 2 h | – | Tm1 | 40.7 °C
N.N.[Cl-].[Cl-].[Pt+2] | T1, G-quadruplex RNA (Homo sapiens) | SPR | – | 25 °C, KCl 100 mM, folded rG4, covalent | – | Kd | 3.1 µM
O=c1nc(SCc2cc(F)cc(C(F)(F)F)c2)nc(SCc2ccc3nc(OCCN4CCOCC4)ccc3c2)[nH]1 | TOP2A | decatenation | – | 31.25 µM, replicate 2 | – | decatenated DNA | 0.6%
CC(C)=CCC/C(C)=C/CC/C(C)=C/COP(=O)(O)OP(=O)(O)O | Protein farnesyltransferase (Rattus norvegicus, UniProt Q02293+Q04631) | peptide prenylation, substrate | – | 2.0 µM, pH 7.5, 25 °C, Protein farnesyltransferase 20 nM, together with: C10-Alk or C15-Alk isoprenoid 0.25 to 16 µM | – | kcat | 0.21 ± 0.01 s⁻¹
Nc1ccc(C(=O)O)cc1 | BEST2 | whole-cell patch clamp | HEK293 transiently expressing channel | concentration not given, membrane potential 60 mV | – | current density | 145 pA/pF and 208 pA/pF and 238 pA/pF and 59.6 pA/pF and 185 pA/pF and 121 pA/pF
Nc1ncnc2c1ncn2[C@@H]1O[C@H](COP(=O)(O)CP(=O)(O)OP(=O)(O)O)[C@@H](O)[C@H]1O | P2X purinoceptor 1 (P2RX1, Homo sapiens, UniProt P51575, R292A) | calcium influx | – | 31.6 µM | reference: ionomycin response | calcium influx | 100% and 61.3% and 82.6% and 89.9%
c1ccc(CCCCCOCCc2ccc3[nH]nnc3c2)cc1 | ATP2A2 (Sus scrofa, UniProt P11607) | ATPase activity, inhibitor | pig microsomes | concentration not given | reference: vehicle | reduction in Vmax | ~87%
Nc1nc(N)c2nc(CNCc3ccc(Oc4ccccc4)cc3)cnc2n1 | Pteridine reductase 1 | – | – | hDHFR weight 10 | reference: LmPTR1, LmDHFR over hDHFR, 1.0 selective, 0.0 non-selective | partition index | 0.91
NCc1ccc(S(N)(=O)=O)cc1 | Carbonic anhydrase 4 (CA4, Homo sapiens, UniProt P22748) | ITC | – | concentration not given, 25 °C | – | intrinsic binding ΔG | -12.3 kcal/mol
COc1cccc2c(-c3ccc(C)cc3)cc(C(=O)Nc3ccc(C(=O)O)cc3)nc12 | Retinoic acid receptor beta (RARB, Homo sapiens, UniProt P10826) | reporter gene, antagonist | – | up to 3300 nM, together with: ATRA 4 nM (EC80) | – | IC50 | inactive
C=CC(=O)N1CCC(COCC(=O)N2CCN(c3nc(-c4cnc(N)nc4C(F)F)nc(N4CCOC[C@@H]4C)n3)CC2)CC1 | Mitogen-activated protein kinase kinase kinase kinase 3 (MAP4K3, Homo sapiens, UniProt Q8IVH8) | KINOMEscan | – | 1 µM | reference: DMSO control | remaining binding | 89%
C=C1C(=O)O[C@@H]2C[C@@]3(C)CCCC(=C)[C@@H]3C[C@H]12 | Bile acid receptor (NR1H4, Homo sapiens, UniProt Q96RI1) | reporter gene, Gal4 hybrid reporter | – | 10 µM | reference: vehicle | activation | 1.16 fold
COCCC(=O)N1CCC(Oc2ccccc2)C1 (centres unmarked) | DDB1 | binding, affinity selection mass spectrometry | – | – | reference: other proteins in batch | fold enrichment | 1.59
CC1(C)NC(=O)N(c2ccc3c(c2)OC(F)(F)O3)C1=O | Androgen receptor (AR, Homo sapiens, UniProt P10275) | DHT-induced transcription, antagonist, luciferase reporter | LAPC4 | together with: dihydrotestosterone | reference: 1 | potency relative to reference | 2 fold
N[C@@H](CC(=O)O)C(=O)O | aspartate racemase | HPLC | Pseudomonas chlororaphis | ATP, MgCl2, PLP, DTT, together with: D-aspartate substrate | – | Km | 7.73 ± 0.88 mM
CCC(C)(NCCc1ccccc1)c1cccc(NC2=CC(=O)N(C3CCC(=O)NC3=O)C2=O)c1 (centres unmarked) | Cereblon/Ikaros | protein degradation, degrader, HiBiT luminescence | Jurkat | – | – | Dmax | 64%
CCOC(=O)C1=C(CN2CCc3ccccc32)NC(=O)NC1c1ccccc1OC(F)F (centres unmarked) | AASS, SDH domain (Homo sapiens, UniProt Q9UDR5) | binding, surface plasmon resonance | – | 0.5556 µM | – | SPR response | 0.545 RU
CNC[C@H](O)c1cccc(O)c1 | Alpha-1B adrenergic receptor (ADRA1B, Homo sapiens, UniProt P35368) | calcium mobilization, agonist | COS-7, transiently expressing receptor | – | reference: 3 µM ionomycin | Emax | ~25%

Some of these lines once more:
Compound | target | test | system | setting | scale | quantity | result
CC(C)=CCC/C(C)=C/CC/C(C)=C/COP(=O)(O)OP(=O)(O)O | Protein farnesyltransferase (Rattus norvegicus, UniProt Q02293+Q04631) | peptide prenylation, substrate | – | 2.0 µM, pH 7.5, 25 °C, Protein farnesyltransferase 20 nM, together with: C10-Alk or C15-Alk isoprenoid 0.25 to 16 µM | – | kcat | 0.21 ± 0.01 s⁻¹
Nc1ccc(C(=O)O)cc1 | BEST2 | whole-cell patch clamp | HEK293 transiently expressing channel | concentration not given, membrane potential 60 mV | – | current density | 145 pA/pF and 208 pA/pF and 238 pA/pF and 59.6 pA/pF and 185 pA/pF and 121 pA/pF
Nc1ncnc2c1ncn2[C@@H]1O[C@H](COP(=O)(O)CP(=O)(O)OP(=O)(O)O)[C@@H](O)[C@H]1O | P2X purinoceptor 1 (P2RX1, Homo sapiens, UniProt P51575, R292A) | calcium influx | – | 31.6 µM | reference: ionomycin response | calcium influx | 100% and 61.3% and 82.6% and 89.9%
